Measurements pooled from the literature.
Lines come from different studies, so protocols differ. Numbers after ± are the reported error.
CHUK: Inhibitor of nuclear factor kappa-B kinase subunit alpha (CHUK, Homo sapiens, UniProt O15111)
UniProt O15111, sequence (whole entry, looked up): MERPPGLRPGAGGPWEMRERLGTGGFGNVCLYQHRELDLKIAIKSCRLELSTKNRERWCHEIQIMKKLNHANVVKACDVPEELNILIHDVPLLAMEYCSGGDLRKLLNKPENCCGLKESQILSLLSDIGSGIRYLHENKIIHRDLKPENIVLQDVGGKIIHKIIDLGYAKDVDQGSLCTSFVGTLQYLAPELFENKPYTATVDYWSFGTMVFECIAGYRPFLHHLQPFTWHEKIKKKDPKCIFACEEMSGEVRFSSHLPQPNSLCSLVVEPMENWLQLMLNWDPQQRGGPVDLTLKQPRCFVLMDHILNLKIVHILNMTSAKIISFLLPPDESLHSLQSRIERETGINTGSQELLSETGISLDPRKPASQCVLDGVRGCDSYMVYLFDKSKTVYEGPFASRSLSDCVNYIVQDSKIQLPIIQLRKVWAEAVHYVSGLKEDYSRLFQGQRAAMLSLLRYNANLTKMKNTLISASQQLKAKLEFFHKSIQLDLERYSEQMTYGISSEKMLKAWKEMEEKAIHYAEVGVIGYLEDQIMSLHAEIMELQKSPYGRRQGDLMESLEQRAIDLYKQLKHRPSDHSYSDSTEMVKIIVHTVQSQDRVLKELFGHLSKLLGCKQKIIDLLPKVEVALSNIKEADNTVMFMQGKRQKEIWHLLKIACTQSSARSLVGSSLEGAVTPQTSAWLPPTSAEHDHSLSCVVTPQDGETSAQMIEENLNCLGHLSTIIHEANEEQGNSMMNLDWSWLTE
UniProt P02716, sequence (whole entry, unmodified, looked up): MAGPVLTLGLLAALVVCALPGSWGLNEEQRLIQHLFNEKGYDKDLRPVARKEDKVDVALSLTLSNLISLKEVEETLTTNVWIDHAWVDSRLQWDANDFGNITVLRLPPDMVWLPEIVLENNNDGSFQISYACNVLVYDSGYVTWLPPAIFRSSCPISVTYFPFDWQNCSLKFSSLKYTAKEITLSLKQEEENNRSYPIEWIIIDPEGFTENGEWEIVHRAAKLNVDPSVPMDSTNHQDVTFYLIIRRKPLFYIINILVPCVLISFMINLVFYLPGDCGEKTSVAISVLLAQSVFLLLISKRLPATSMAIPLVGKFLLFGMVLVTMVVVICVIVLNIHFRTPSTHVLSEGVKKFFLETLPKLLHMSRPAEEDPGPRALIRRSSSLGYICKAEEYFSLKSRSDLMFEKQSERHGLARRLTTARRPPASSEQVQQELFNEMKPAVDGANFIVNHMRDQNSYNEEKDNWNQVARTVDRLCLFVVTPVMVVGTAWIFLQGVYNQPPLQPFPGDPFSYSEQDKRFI
UniProt P48729, sequence (whole entry, looked up): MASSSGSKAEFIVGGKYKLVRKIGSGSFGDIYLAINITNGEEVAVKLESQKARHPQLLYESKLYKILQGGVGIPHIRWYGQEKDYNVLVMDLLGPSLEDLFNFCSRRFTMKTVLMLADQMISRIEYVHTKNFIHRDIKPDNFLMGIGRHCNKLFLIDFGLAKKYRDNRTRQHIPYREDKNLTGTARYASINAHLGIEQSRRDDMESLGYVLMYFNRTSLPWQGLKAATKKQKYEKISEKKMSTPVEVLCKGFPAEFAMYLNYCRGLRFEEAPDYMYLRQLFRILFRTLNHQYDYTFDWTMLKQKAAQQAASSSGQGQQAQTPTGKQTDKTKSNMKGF
UniProt P20782, sequence (whole entry, unmodified, looked up): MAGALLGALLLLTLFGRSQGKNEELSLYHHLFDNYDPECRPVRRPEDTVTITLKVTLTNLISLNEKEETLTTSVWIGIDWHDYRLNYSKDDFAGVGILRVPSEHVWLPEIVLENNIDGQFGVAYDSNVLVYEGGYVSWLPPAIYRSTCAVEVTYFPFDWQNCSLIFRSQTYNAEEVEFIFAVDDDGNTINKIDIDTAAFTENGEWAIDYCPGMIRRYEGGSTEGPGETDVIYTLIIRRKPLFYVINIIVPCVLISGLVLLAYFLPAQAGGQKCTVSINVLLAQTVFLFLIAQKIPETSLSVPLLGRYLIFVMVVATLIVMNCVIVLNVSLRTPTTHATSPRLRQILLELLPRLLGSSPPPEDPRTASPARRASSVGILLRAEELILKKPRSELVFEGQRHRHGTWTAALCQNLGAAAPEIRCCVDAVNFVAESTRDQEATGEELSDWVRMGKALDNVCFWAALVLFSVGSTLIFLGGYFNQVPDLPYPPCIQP
UniProt O15552, sequence (whole entry, looked up): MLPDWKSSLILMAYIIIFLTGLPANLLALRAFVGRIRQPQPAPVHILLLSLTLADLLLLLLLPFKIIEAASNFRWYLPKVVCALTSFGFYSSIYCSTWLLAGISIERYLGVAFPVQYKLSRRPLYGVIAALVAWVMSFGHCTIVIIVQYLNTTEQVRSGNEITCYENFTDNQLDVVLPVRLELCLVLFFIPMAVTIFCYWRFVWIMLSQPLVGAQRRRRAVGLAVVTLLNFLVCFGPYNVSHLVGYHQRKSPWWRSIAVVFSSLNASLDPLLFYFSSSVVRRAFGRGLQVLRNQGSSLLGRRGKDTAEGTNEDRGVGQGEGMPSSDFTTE
UniProt Q02763, sequence (whole entry, looked up): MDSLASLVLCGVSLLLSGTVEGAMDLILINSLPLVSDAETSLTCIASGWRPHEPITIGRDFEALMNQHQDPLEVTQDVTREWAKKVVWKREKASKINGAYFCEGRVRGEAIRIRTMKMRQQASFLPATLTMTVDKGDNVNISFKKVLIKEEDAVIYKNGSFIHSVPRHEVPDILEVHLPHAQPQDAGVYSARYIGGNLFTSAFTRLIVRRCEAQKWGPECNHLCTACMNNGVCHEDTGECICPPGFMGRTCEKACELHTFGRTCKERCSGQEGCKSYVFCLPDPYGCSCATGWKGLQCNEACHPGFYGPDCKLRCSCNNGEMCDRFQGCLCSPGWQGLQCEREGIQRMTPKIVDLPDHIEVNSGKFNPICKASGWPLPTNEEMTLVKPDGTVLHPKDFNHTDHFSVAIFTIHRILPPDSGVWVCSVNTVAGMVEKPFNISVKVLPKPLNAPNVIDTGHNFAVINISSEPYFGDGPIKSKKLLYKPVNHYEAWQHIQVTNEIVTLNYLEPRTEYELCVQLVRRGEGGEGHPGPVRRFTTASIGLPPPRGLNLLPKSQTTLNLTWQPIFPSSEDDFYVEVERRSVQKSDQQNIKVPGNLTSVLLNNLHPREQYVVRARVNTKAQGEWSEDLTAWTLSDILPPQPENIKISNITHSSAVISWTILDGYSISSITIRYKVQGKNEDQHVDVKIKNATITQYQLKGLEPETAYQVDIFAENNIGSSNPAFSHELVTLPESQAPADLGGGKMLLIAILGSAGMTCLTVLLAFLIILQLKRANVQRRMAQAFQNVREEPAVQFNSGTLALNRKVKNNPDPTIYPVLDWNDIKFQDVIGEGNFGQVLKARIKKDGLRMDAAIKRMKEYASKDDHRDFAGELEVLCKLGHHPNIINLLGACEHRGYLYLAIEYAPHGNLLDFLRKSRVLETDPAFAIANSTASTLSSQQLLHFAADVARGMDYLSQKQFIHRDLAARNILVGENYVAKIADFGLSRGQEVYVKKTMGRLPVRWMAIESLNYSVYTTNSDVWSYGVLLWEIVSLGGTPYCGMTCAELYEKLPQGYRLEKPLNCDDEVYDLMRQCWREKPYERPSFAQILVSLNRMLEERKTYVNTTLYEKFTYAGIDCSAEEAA
UniProt Q6ZWH5, sequence (whole entry, looked up): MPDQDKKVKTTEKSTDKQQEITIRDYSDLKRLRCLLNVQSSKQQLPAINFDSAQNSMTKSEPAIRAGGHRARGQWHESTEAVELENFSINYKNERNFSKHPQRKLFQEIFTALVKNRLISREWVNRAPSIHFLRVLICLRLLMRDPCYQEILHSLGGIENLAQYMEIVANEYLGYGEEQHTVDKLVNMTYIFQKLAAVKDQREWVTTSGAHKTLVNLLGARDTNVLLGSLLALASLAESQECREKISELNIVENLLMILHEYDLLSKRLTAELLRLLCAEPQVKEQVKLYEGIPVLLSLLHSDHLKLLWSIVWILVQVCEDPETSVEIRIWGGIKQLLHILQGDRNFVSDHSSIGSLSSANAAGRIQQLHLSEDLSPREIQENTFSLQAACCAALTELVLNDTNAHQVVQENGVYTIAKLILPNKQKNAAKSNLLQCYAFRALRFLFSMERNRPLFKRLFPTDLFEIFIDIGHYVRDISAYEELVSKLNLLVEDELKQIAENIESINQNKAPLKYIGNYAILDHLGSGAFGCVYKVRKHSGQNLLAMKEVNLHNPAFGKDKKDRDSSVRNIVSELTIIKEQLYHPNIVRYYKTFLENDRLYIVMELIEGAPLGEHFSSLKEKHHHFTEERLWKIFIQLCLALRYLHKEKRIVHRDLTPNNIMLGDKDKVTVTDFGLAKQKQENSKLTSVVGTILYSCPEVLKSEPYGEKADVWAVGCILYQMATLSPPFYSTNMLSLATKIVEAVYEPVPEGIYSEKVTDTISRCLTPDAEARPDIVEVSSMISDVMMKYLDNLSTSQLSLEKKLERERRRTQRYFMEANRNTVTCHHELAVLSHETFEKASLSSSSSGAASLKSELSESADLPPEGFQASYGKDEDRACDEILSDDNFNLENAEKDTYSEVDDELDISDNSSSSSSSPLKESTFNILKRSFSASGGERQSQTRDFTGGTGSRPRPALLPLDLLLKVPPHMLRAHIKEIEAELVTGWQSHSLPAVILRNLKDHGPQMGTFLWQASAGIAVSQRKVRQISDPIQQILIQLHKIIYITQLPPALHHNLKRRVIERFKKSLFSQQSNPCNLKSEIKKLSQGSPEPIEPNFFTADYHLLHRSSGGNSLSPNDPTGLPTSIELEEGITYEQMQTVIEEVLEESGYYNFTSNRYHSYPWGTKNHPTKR

C[C@]12CC[C@H]3[C@@H](CCC4=CC(=O)CC[C@@]43C)[C@@H]1CC[C@@H]2C(=O)CO
11β-hydroxylation product formation rate (CYP11B2 (Homo sapiens, UniProt P19099); substrate; 100 µM, 37 °C, phospholipid vesicles): 34.2 ± 1.1 min⁻¹

O=C(Nc1cnccc1Cl)N1CCN(Cc2ccc3c(c2)OC(F)(F)O3)CC1
inhibition (CHUK; enzyme activity, inhibitor; 50 µM): -3%

O=C(c1ccc(Cl)cc1)N1CCN2C(=O)N(OC(=O)N3CCOc4ccccc43)C(=O)C2C1 (stereo not shown)
median ratio (CTSA (Homo sapiens, UniProt P10619); enzyme activity, inhibitor, MS-based ABPP; SW-620 in situ; 10 µM, 2 h, 37 °C; reference: compound over DMSO, lower = stronger inhibition): 1.07

CN1CCN(c2cc(-c3ccncc3)c(-c3ccc4ccccc4c3)nn2)CC1
inhibition (FFAR2 (Homo sapiens, UniProt O15552); antagonist, FLIPR; 10 µM): -4.8%

C[C@H]1CN(c2n[nH]c3nc(N[C@H]4CC[C@H](NS(=O)(=O)CCC(F)(F)F)CC4)ncc23)CCO1
relative abundance (DYNC1H1 (Homo sapiens, UniProt Q14204); inhibitor, Kinobeads competition profiling; 20 µM; reference: vehicle): 1.19

COc1cc(Nc2ncc(F)c(Nc3ccc4c(n3)NC(=O)C(C)(C)O4)n2)cc(OC)c1OC
inhibition (CSNK1A1 (Homo sapiens, UniProt P48729); KINOMEscan; 10 µM): 24%

CN(C(=O)n1cnc(-c2ccc[n+]([O-])c2)c1)C1CCCCC1
inhibition (Adra1a (Rattus norvegicus, UniProt P43140); radioligand binding; 10 µM, added: [3H]prazosin): 4%

Cc1ccc([C@H]2C[C@@H]2COc2cc(NCc3nnc(C)s3)nc(C)n2)nc1
selectivity ratio (PDE1A (Homo sapiens, UniProt P54750); enzyme activity, inhibitor, IMAP fluorescence polarization; reference: Ki target over Ki PDE10A2): > 2.01e+06 fold

C[N+](C)(C)C
affinity ratio (Chrnd/Chrna1/Chrne (Mus musculus, UniProt P02716+P04756+P20782, G173K/S470W); ligand binding, agonist, single-channel kinetics; chain K; reference: wild type over mutant): 0.9

[2H]c1c([2H])c([C@]2([2H])CCCN2C(=O)C(C)(C)Oc2ccc3cn[nH]c3c2)c([2H])c([2H])c1C([2H])([2H])[2H]
remaining binding (NEK10 (Homo sapiens, UniProt Q6ZWH5); KINOMEscan; 1 µM; reference: DMSO control): 100%

CC[n+]1c(-c2ccccc2)c2cc(N)ccc2c2ccc(N)cc21
remaining activity (DCLRE1A (Homo sapiens, UniProt Q6PJP8); exonuclease activity, inhibitor, fluorescence HTS; 10 µM, 80 min, added: 8 nM 5P-FQ substrate): 36.6%

O=C(Nc1cccnn1)N1CCC(=Cc2cccc(Oc3ccc(C(F)(F)F)cn3)c2)CC1
inhibition (CHUK; enzyme activity, inhibitor; 10 µM): 0%

COc1ccc(N2C(=O)N(c3c(C)cccc3Cl)Cc3cnc(Nc4ccc(C5CCN(C)CC5)cc4OC)nc32)nc1
inhibition (TEK (Homo sapiens, UniProt Q02763); kinase activity, inhibitor; 0.5 µM, kinase TIE2): 22%

A few entries again:
CN(C(=O)n1cnc(-c2ccc[n+]([O-])c2)c1)C1CCCCC1
inhibition (Adra1a (Rattus norvegicus, UniProt P43140); radioligand binding; 10 µM, added: [3H]prazosin): 4%

Cc1ccc([C@H]2C[C@@H]2COc2cc(NCc3nnc(C)s3)nc(C)n2)nc1
selectivity ratio (PDE1A (Homo sapiens, UniProt P54750); enzyme activity, inhibitor, IMAP fluorescence polarization; reference: Ki target over Ki PDE10A2): > 2.01e+06 fold
